Assay results from different studies.
Lines come from different studies, so protocols differ. ± gives the spread as reported.
BCHE: Cholinesterase (BCHE, Equus caballus, UniProt P81908)
Sequence of UniProt P81908 (whole entry, looked up): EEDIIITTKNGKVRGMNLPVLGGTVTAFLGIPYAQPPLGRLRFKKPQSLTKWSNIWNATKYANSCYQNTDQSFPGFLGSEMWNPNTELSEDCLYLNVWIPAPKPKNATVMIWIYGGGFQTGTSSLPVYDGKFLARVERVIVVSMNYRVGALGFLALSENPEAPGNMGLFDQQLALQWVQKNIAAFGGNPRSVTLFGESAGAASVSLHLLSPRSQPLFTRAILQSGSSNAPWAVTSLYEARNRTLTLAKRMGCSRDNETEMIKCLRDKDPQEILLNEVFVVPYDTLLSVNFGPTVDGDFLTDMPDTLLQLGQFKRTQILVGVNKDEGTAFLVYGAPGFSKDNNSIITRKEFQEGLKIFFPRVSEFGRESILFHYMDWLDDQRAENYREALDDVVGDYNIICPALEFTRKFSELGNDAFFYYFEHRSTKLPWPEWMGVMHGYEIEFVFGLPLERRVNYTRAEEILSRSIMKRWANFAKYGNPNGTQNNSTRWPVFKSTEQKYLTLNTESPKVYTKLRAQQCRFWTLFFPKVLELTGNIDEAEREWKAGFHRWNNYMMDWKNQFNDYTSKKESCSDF
HRH3: Histamine H3 receptor (HRH3, Homo sapiens, UniProt Q9Y5N1)
Sequence of UniProt Q9Y5N1 (whole entry, looked up): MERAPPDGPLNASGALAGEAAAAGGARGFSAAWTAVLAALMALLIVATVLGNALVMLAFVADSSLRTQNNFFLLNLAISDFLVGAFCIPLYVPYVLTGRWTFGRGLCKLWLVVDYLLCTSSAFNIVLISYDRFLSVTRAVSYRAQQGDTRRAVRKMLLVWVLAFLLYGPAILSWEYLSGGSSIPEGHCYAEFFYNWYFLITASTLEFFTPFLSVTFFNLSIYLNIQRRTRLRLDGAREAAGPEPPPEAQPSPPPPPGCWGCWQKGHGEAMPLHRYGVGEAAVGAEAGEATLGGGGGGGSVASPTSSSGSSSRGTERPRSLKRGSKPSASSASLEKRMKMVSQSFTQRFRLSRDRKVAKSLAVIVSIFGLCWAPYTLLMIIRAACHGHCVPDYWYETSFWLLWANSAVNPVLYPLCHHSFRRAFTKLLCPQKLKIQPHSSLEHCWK
Sequence of UniProt P07711 (whole entry, looked up): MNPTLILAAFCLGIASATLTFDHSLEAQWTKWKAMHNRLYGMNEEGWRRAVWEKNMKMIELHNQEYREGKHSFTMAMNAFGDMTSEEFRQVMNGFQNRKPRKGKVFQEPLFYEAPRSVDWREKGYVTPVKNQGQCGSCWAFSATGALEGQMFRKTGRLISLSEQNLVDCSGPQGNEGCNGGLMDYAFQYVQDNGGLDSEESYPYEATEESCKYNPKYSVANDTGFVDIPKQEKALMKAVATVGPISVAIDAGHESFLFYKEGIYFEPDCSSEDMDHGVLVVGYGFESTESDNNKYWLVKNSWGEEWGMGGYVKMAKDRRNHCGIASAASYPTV
Sequence of UniProt Q9UGN5 (whole entry, looked up): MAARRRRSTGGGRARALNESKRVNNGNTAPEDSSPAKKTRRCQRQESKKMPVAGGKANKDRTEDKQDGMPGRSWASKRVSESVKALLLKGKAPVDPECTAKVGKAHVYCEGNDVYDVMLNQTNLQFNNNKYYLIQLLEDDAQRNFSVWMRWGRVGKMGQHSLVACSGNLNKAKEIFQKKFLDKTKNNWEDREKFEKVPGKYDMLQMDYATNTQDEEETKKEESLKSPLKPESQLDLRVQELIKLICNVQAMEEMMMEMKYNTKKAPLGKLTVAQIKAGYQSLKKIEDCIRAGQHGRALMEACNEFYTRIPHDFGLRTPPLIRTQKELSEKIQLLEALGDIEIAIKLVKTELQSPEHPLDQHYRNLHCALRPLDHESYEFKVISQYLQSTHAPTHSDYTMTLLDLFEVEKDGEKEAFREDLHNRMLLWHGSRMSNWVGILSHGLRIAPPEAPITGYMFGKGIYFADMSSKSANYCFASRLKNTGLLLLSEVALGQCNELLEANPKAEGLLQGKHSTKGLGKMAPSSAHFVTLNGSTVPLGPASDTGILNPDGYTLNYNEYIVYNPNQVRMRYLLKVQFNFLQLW
Sequence of UniProt P30411 (whole entry, looked up): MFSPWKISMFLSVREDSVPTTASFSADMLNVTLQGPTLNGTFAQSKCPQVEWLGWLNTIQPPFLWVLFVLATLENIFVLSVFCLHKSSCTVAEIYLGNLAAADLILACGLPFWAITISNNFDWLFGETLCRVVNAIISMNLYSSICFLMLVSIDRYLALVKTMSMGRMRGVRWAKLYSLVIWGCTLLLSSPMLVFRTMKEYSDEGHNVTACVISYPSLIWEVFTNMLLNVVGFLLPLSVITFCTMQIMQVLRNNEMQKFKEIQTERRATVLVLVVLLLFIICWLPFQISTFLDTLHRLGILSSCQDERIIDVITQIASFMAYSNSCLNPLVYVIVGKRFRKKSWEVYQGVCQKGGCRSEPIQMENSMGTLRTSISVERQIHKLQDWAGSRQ
Sequence of UniProt Q13547 (whole entry, looked up): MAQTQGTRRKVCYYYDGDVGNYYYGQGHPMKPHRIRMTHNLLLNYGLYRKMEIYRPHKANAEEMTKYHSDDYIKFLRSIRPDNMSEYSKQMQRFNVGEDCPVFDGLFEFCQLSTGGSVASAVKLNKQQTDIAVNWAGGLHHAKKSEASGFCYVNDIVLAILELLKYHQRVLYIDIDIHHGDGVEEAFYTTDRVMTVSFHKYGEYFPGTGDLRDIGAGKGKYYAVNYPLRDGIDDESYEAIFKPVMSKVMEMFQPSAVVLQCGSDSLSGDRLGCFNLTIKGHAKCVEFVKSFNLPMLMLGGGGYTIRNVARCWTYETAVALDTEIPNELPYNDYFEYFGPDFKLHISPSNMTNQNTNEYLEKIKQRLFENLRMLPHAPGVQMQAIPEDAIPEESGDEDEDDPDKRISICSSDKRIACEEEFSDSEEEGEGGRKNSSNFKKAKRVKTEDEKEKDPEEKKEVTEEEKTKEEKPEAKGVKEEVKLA
Sequence of UniProt P37231 (whole entry, looked up): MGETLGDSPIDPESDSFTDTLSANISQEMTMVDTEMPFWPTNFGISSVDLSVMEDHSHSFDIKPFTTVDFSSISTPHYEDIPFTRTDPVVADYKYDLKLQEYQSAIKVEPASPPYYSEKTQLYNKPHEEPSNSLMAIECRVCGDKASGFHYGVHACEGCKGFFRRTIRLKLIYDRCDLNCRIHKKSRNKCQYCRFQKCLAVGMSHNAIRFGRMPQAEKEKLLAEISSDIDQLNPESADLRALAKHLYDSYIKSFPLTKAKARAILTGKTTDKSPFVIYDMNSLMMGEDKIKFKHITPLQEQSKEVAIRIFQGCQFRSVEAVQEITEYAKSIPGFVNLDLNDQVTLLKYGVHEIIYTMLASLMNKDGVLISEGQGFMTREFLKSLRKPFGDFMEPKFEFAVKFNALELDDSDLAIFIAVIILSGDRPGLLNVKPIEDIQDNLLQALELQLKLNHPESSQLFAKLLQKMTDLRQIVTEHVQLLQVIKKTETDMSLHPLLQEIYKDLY
Sequence of UniProt P47901 (whole entry, looked up): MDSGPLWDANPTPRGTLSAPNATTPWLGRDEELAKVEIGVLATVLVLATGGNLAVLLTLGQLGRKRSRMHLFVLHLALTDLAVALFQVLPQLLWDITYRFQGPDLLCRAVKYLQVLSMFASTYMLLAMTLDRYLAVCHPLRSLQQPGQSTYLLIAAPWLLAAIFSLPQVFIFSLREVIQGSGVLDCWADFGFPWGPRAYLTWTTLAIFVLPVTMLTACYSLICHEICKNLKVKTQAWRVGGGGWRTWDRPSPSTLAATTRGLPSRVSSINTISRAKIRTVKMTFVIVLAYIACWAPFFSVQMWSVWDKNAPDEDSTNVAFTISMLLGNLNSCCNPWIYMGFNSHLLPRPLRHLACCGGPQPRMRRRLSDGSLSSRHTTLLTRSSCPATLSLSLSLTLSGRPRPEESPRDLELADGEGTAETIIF
Sequence of UniProt Q07002 (whole entry, looked up): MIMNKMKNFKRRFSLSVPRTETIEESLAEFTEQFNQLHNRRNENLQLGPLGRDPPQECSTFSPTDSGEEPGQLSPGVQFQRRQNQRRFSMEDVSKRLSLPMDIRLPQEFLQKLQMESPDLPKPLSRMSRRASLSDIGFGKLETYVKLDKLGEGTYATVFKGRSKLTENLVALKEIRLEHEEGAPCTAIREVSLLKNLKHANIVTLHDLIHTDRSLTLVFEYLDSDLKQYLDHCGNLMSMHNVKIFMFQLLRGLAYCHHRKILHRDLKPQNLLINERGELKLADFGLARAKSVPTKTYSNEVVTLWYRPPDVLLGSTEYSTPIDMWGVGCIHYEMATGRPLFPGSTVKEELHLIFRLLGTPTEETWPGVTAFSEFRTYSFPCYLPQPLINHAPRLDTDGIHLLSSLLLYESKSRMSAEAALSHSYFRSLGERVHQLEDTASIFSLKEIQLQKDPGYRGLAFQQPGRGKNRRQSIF
Sequence of UniProt P53341 (whole entry, looked up): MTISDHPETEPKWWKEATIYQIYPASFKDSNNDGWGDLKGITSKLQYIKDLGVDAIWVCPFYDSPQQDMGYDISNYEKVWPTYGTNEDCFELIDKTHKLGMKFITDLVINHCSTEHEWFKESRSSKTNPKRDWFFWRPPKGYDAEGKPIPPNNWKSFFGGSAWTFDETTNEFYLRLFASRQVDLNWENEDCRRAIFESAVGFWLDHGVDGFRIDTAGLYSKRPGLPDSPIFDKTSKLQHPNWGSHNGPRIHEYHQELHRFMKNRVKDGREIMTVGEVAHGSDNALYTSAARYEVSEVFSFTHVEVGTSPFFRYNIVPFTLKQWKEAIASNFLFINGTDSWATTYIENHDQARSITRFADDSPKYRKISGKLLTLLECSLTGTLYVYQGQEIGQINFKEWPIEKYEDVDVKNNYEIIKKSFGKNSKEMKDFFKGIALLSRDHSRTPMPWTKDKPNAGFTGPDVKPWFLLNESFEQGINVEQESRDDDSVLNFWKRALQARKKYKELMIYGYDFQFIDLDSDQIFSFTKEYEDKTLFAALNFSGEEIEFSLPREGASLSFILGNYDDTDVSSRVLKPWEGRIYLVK

CS(C)(=O)=Nc1ccc(-c2ccc(-c3nc4cc(O[C@@H]5CO[C@H]6[C@@H]5OC[C@H]6O)[nH]c4cc3F)cc2)cc1 — inhibition (Hepatocyte growth factor receptor (MET, Homo sapiens, UniProt P08581, M1250T); enzyme activity, inhibitor; 10 µM): -47%
N#Cc1ccc(N2N=C3c4ccc(C(=O)O)cc4CCC3C2C2CCCC2)cc1Cl (stereo not drawn) — inhibition (MLL4-WDR5 complex; 10 µM): 24%
Cc1cc(OCC(=O)NCCNC(=O)c2cccc(COc3ccccc3C(N)=O)c2)c2c3c(c(=O)oc2c1)CCC3 — inhibition (Poly [ADP-ribose] polymerase 2 (PARP2, Homo sapiens, UniProt Q9UGN5); enzyme activity, inhibitor; 0.104 µM): 100%
CN(/N=C/c1ccccc1C(=O)O)c1nc(-c2ccccc2Cl)cs1 — inhibition (Cyclin-dependent kinase 18, with cyclin Y (CDK18, Homo sapiens, UniProt Q07002); enzyme activity, inhibitor; 1 µM): -16.2%
COc1ccccc1N1CCN(CCCCN2CCCc3ccccc3C2=O)CC1 — inhibition (5-hydroxytryptamine receptor 5A (HTR5A, Homo sapiens, UniProt P47898); radioligand binding; concentration not given, with: [3H]LSD): 72.8%
NCCc1ccc(F)cc1 — inhibition (BCHE; enzyme activity, inhibitor, Ellman; 20 µM): 35.7%
N[C@H](C(=O)N1CCCC1)C1CCN(c2nccc3c(-c4ncc(Cl)cc4Cl)cccc23)CC1 — inhibition (Peroxisome proliferator-activated receptor gamma (PPARG, Homo sapiens, UniProt P37231); ligand displacement; 10 µM): 0%
CC(=O)NC[C@@H]1[C@@H](O)C[C@H]2[C@H](O)C[C@@H](CO)N12 — inhibition (Spodoptera litura β-N-acetylglucosaminidase; crude enzyme; 0.856 µM, run 2, with: p-nitrophenyl GlcNAc): 67.7%
CN[C@@H]1[C@H](O)[C@H](NC)[C@H]2O[C@]3(O)[C@H](O[C@@H]2[C@H]1O)O[C@H](C)C[C@H]3NC(=O)Cc1ccc(Cl)cn1 — inhibition (HRH3; ligand displacement, radioligand; 10 µM): -12%
CCOC(=O)[C@](CC)(CCCSCCOCCOCCNC(=O)c1ccc(-c2c3ccc(=N)c(S(=O)(=O)O)c-3oc3c(S(=O)(=O)O)c(N)ccc23)c(C(=O)O)c1)NC(=O)c1ccc(C2CC2)c(Cc2ccc(F)cc2)n1 — inhibition (HRH3; ligand displacement, radioligand; 10 µM): -1%
COc1ccc(F)cc1S(=O)(=O)Nc1cnc2c(c1)C(=O)NCCO2 — inhibition (adenosine transporter; radioligand binding; 10 µM): -19%
C(=N\C12CC3CC(CC(C3)C1)C2)/c1ccccc1 — inhibition (Procathepsin L (CTSL, Homo sapiens, UniProt P07711); enzyme activity, inhibitor; 100 µM, with preincubation): 1%
N#CCc1ccc(O)cc1 — inhibition (Alpha-glucosidase MAL12 (MAL12, Saccharomyces cerevisiae S288c, UniProt P53341); inhibitor; 100 µg/mL, 0.4167 h, with: p-nitrophenyl glucoside substrate): 42.7 ± 3.47%
O=C(CCCCCCC(=O)Nc1ccccc1)NO — inhibition (Histone deacetylase 1 (HDAC1, Homo sapiens, UniProt Q13547); enzyme activity, inhibitor; 1 µM): 92.1%
C[C@H](NCc1ccc(-c2ccc(C(F)(F)F)cc2)cc1)C(N)=O — inhibition (Phosphatidylinositol 4-phosphate 3-kinase C2 domain-containing subunit beta (PIK3C2B, Homo sapiens, UniProt O00750); cell-free assay, competition with immobilised ligand; 1 µM): 2%
CCCCCCCCCCCCCCCCCC(=O)NC[C@H]1CC[C@H](C(=O)N[C@@H](CCC(=O)NCCCOCCOCCOCCCNC(=O)COCC(=O)N[C@@H](Cc2ccc(O)cc2)C(=O)NC(C)(Cc2ccccc2)C(=O)N[C@@H](CC(C)C)C(=O)N[C@@H](CCCC)C(=O)N[C@@H](CCCNC(=N)N)C(=O)N2CCC[C@H]2C(=O)N[C@@H](CCCNC(=N)NC)C(=O)N[C@@H](CC(N)=O)C(N)=O)C(=O)O)CC1 (stereo partly drawn) — inhibition (Vasopressin V1b receptor (AVPR1B, Homo sapiens, UniProt P47901); antagonist, DiscoverX GPCR panel; 1 µM): 56%
O=C(O)c1ccccc1/C=N/Nc1nc(-c2ccccc2Cl)cs1 — inhibition (Cyclin-dependent kinase 1, with cyclin E1 (CDK1, Homo sapiens, UniProt P06493); enzyme activity, inhibitor; 1 µM): -4.38%
CN[C@@H]1[C@H](O)[C@H](NC)[C@H]2O[C@]3(O)[C@H](O[C@@H]2[C@H]1O)O[C@H](C)C[C@H]3NC(=O)Cc1cc(Cl)ccn1 — inhibition (B2 bradykinin receptor (BDKRB2, Homo sapiens, UniProt P30411); ligand displacement, radioligand; 10 µM): 16%
CN(C)[C@H]1C[C@@]23CC[C@@]4(O2)C(=CC[C@]2(C)[C@@H](c5ccc6ccncc6c5)CC[C@H]24)C=C3[C@@H](O)[C@@H]1O — inhibition (Diacylglycerol kinase eta (DGKH, Homo sapiens, UniProt Q86XP1); ATP probe labelling, inhibitor, KiNativ profiling; 0.1 µM): -2.4%
CC(C)[C@H]1NC(=O)C[C@H]2/C=C/CCSSC[C@@H](NC1=O)C(=O)N[C@H](Cc1cccc3ccccc13)C(=O)NCC(=O)O2 — inhibition (Tyrosine-protein kinase ABL1 (ABL1, Homo sapiens, UniProt P00519, T315I); enzyme activity, inhibitor; 10 µM): 0.6%
O=S(=O)(F)CCc1cn(-c2cnc3ccccc3c2)nn1 — inhibition (BCHE; Ellman; horse; 20 µM): 46.7 ± 2.2%
O=C(CN1CN(c2ccccc2)C2(CCN(C(=O)c3cnc4[nH]ncc4c3)CC2)C1=O)NCC(F)(F)F — inhibition (Epidermal growth factor receptor (EGFR, Homo sapiens, UniProt P00533, L858R); inhibitor; concentration not given): < 50%
CCN(CC)CCOc1ccc(-c2nnn(Cc3ccc(OC)cc3)c2N)cc1 — inhibition (L-type calcium channel (rat); radioligand binding; cerebral cortex; 10 µM, with: 10000 nM radioligand): -6.34%
c1ccc(CN2CCNCC2)cc1 — inhibition (BCHE; enzyme activity, inhibitor, Ellman; 20 µM): 40.9%

Some of these lines once more:
O=C(O)c1ccccc1/C=N/Nc1nc(-c2ccccc2Cl)cs1 — inhibition (Cyclin-dependent kinase 1, with cyclin E1 (CDK1, Homo sapiens, UniProt P06493); enzyme activity, inhibitor; 1 µM): -4.38%
CC(=O)NC[C@@H]1[C@@H](O)C[C@H]2[C@H](O)C[C@@H](CO)N12 — inhibition (Spodoptera litura β-N-acetylglucosaminidase; crude enzyme; 0.856 µM, run 2, with: p-nitrophenyl GlcNAc): 67.7%
